# Measured values of several laboratories.
# A part holds a random share of what one study measured. Positions count from the first letter of the parent shown.
# Chain of UniProt Q9C0B0 (30-357, looked up): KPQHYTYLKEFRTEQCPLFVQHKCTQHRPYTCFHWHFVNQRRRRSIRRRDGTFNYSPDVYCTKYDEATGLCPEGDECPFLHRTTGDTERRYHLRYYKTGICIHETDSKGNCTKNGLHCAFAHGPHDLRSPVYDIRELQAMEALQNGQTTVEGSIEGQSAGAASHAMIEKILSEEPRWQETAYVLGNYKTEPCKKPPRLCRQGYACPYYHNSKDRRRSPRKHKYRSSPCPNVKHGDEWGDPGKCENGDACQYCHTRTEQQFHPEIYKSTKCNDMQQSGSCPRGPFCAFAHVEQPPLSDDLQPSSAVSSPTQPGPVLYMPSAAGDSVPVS

# Block 1 — technique: universal PBM; molecule type: double-stranded DNA, one strand shown; medium: in vitro; tested at: 600 nM; reading: higher = stronger binding
# Target: Sal-like protein 4, full length isoform A (SALL4, Homo sapiens, UniProt Q9UJQ4, residues 1-1053)
# Chain of UniProt Q9UJQ4 (whole entry, looked up): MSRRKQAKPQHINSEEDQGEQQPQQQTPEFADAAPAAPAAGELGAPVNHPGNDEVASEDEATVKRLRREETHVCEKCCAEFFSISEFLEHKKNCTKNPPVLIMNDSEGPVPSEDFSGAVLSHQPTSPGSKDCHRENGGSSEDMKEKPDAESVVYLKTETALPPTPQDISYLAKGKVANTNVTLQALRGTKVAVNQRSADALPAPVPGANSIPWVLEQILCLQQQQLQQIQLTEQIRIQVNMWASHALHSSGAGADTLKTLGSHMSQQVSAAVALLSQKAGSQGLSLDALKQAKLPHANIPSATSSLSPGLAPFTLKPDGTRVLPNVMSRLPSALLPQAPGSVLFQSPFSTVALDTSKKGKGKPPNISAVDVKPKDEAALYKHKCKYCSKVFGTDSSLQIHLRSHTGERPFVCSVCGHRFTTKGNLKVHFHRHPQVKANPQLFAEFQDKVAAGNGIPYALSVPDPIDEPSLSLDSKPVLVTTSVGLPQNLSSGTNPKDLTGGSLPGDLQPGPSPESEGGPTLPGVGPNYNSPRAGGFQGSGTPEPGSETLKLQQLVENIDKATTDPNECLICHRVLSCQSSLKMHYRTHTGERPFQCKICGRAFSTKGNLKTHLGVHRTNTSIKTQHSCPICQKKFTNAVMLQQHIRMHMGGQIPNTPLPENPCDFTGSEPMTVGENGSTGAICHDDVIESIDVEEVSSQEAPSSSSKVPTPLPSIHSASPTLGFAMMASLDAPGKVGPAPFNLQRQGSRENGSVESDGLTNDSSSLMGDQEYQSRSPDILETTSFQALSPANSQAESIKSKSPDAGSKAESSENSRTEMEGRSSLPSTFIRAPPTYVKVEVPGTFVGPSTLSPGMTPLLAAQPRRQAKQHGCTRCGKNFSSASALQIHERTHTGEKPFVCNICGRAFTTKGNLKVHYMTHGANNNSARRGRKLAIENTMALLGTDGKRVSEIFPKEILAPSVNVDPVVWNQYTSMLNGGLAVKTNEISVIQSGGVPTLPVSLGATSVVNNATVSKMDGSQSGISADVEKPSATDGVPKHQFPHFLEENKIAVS
# Setting: 8-mer, flanks averaged, mean of replicates
Oligonucleotide,E-score
CGGTCGCC,-0.282
AGGATAGC,-0.108
AAGTGCCT,-0.162
GGACATAA,0.198
GGTTATTA,0.385
ATGCTGCG,-0.153
AACGGATT,0.221
AGTAGTCC,-0.00157
GCTGGAGA,-0.232
GTCCCAAC,-0.105
GGGCTAAA,-0.13
ATCGGACG,-0.2
GCCAATGA,-0.148
CTTTAAGC,0.0326
AAGAACAG,0.0523

# Block 2 — technique: protein-binding microarray; molecule type: double-stranded DNA, one strand shown; medium: in vitro; tested at: 250 nM; setting: 60-bp whole probe; with: salmon DNA 0.4 mg/ml; baseline: random background probes; reading: higher = stronger binding; shared flanks, not repeated: GCCTAGCAC … GTCTTGATTCGCTTGACGCTGCTG
# Target: Interferon regulatory factor 7, full length, phosphomimetic (IRF7, Homo sapiens, UniProt Q92985, residues 1-503, S101K/S471D/S472D/S475D/S476D/S477D/S483D/S484D/S487D)
# Construct (chain): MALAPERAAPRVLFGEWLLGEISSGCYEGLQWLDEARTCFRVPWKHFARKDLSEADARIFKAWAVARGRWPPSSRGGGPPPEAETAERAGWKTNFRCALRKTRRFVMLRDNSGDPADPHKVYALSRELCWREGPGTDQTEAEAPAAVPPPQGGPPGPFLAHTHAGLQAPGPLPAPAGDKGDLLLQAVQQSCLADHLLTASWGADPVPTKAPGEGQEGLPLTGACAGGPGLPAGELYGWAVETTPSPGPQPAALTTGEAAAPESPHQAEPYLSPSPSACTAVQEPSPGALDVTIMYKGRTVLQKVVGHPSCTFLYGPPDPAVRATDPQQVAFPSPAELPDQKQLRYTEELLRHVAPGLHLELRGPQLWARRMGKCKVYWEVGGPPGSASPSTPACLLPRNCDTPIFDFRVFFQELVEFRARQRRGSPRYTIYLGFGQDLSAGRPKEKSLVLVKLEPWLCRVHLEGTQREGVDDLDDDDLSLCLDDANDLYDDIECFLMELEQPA
Oligonucleotide,log fluorescence
TTAGGTCTCGGTCTCGGTAAGTGCTAG,1.9 z-score
GACGGACTGGGGTATCGGGGCGTGCTA,-0.595 z-score
GACGGTCTCATTTTCCTGACGTGCTAG,1.79 z-score
GACGAACTGAGTATCGAGATGTGCTAG,0.149 z-score
TTAGGTTTCGGACTGGGATAGTGCTAG,3.85 z-score
TCATTTTTCTAATTGAAACTGTGCTAG,2.95 z-score
GGCGGTATCCTTCTCCTGACGTGCTAG,-0.318 z-score
TCAGGTTTCGGTCTCGGTTAGTGCTAG,9.19 z-score
GACGATATCAGTATCGAGAAGTGCTAG,-0.41 z-score
TCATTTTTGCTTACGATGCAGTGCTAG,0.815 z-score
TACTTTCTACTTCTCTTTTTGTGCTAG,3.89 z-score
TCATTTTCCTACATCAGACTGTGCTAG,2.52 z-score
TCATAAATATCTTTGTTACTGTGCTAG,0.126 z-score
TGAGGTATCCTTTTCCTTTAGTGCTAG,1.05 z-score
GACGATTTCAGTATCGTGACGTGCTAG,0.143 z-score
TCATTTTTTTTTTTCTGACTGTGCTAG,0.713 z-score

# Block 3 — target: CCNF, cyclin fold, Cln2 fusion (human); technique: yeast growth competition, sequencing; medium: yeast; setting: strong parent motif; baseline: not given; reading: higher = stronger binding
# Starting sequence: RBL2 docking peptide (human); STTRRRLFVENDS; partner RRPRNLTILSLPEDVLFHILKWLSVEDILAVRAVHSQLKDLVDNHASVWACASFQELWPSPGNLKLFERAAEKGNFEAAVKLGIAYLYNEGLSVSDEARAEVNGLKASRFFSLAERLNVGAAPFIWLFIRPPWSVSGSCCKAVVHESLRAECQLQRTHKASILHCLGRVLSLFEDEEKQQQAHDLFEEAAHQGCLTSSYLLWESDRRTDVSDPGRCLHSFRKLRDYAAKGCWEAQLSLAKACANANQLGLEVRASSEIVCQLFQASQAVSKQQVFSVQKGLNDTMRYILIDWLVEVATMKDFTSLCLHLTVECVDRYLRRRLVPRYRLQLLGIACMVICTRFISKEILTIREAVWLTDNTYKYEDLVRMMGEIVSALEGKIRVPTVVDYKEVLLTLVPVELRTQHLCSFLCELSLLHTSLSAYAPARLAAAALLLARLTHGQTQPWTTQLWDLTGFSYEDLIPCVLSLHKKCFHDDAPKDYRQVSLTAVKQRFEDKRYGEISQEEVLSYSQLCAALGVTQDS
Substitution,normalised enrichment score
STTRRRLWVENDS [F8W],3.95
STTRRRLFVESDS [N11S],8.05
STTRRRLFVEGDS [N11G],9.08
STTRRRLFIENDS [V9I],7.66
STTRRCLFVENDS [R6C],6.98
STTRRRLFVKNDS [E10K],6.52
STTRRRLFVVNDS [E10V],7.37
STTRRRLFKENDS [V9K],8.5
STTRRRLFVHNDS [E10H],7.66
STTRRNLFVENDS [R6N],3.41
STTWRRLFVENDS [R4W],3.6
STTRQRLFVENDS [R5Q],1.1
STTYRRLFVENDS [R4Y],5.19
STTRRRLFSENDS [V9S],8.01
STTRRRLFVEVDS [N11V],8.98

# Block 4 — technique: RNA Bind-n-Seq; molecule type: RNA; medium: in vitro; tested at: 200 nM; setting: whole 134-nt RNA, ends assumed; with: 150 mM KCl; baseline: input library; reading: higher = stronger binding
# Target: Ras GTPase-activating protein-binding protein 1, full length (G3BP1, Homo sapiens, UniProt Q13283)
# Chain of UniProt Q13283 (whole entry, looked up): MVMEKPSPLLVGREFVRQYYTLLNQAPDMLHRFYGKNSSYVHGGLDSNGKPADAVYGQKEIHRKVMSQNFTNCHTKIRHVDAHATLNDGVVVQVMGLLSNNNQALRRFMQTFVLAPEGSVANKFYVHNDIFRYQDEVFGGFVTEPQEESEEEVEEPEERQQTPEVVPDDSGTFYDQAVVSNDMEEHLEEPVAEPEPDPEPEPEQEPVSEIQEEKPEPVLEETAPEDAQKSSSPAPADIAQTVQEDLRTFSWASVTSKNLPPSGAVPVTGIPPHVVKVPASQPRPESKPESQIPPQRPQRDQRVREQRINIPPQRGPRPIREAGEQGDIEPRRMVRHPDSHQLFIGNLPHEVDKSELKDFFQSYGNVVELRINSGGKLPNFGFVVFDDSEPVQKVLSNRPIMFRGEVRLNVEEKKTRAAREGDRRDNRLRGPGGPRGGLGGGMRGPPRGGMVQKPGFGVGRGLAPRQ
# Shared flanks, not repeated: GGGAGUUCUACAGUCCGACGAUC … UGGAAUUCUCGGGUGUCAAGG
Oligonucleotide,log2 enrichment
GCAGGAAGUAAAAACAAAUGGAAAUGCUUCGGAUAGUGGCAGGGGUGGGGGUUGCUAAGGAAAUGGUGGGAUGGGAGUGGGUAAAGAGUU,0.715
UGCUGUUCAGGUGGUGGAGAAGAAGAUGGAACCCCAGGCUGCCUGGCUACAGAGCCUGGAGGGAUGCAUGUGGACAGCCAAGAAGAAGCU,-1.66
CAAGUCCUGUGCUACACAUCGUAUGUACCGAAUCGGGAAAGGGGAAAGGAAAGGGAAAGUAUUAUGUUACGCCGUUCGGAUCUGCACUUC,-0.438
CCUGUGCUACACAUCGUAUGUACCGAAUCGGGAAAAAAAGGAAAAAAAGGAAAAAAAGGGAAAGUAUUAUGUUACGCCGUUCGGAUCUGC,-0.746
UCAAGUCCUGUGCUACACAUCGUAUGUACCGAAUCGGGAAAAAGGGUGGGAGGGAAAGUAUUAUGUUACGCCGUUCGGAUCUGCACUUCC,1.11
GCAGGAAGUAAAAACAAAUGGAAAUGCUUCGGAUAGUGGCAGGGGUGGGGGUUGCUAAGGAAAGCGUGGGAUGGGAGUGGGUAAAGAGUU,1.02
UCCUGUGCUACACAUCGUAUGUACCGAAUCGGGGUUUUUGGGGAAAGGGGUUUUUGGGGAAAGUAUUAUGUUACGCCGUUCGGAUCUGCA,0.8

# Block 5 — technique: protein binding microarray; molecule type: double-stranded DNA, one strand shown; medium: in vitro; tested at: not given; baseline: not given; reading: higher = stronger binding
# Target: Histone acetyltransferase KAT6A, winged helix 1, GST fusion (KAT6A, Homo sapiens, UniProt Q92794, residues 1-85)
# Setting: 8-mer, flanks averaged, mean of 2 arrays, mostly near background
# Construct (chain): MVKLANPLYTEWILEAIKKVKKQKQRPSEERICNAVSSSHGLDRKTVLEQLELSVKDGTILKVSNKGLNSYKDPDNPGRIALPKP
Oligonucleotide,E-score
AGACCGGG,0.0921
AGAGGACA,-0.242
ATATTATC,0.0587
ACTATCAA,-0.0365
CGGAGCTA,-0.118
CGGTTATC,0.169
GGGTGATA,0.133
CCCATACA,-0.167
CGCAACAG,0.109
GATTGAGC,0.0103
CATATGGA,-0.105
AAGTTGTA,-0.144
CGTACCAA,-0.0258
ACAGAGCC,0.112
ATGTGAGA,-0.202
CAAGCCGG,0.167

# Mixed results
Oligonucleotide,target,test,system,setting,how to read,endpoint,result
GGGAGUUCUACAGUCCGACGAUCCUCUUUUCCAGGUUGGAUGUACUGGAAAAGUCACCGGAAUUGAUCACAUUAAAGAGCCCGCCGAUGACUCAGUAAAUAAUGUCAGGAAGGACGAUCCAACACUUCUGUCUUCAGGGAGAGCAACAGAGGAUUGAGCAUCA,"RING finger protein unkempt homolog, zinc fingers 1-6, SBP tag (UNK, Homo sapiens, UniProt Q9C0B0, residues 30-357)",RNA Bind-n-Seq,"RNA, in vitro","100 nM, RNA with constant flanks, ends assumed","baseline: input RNA pool, higher = stronger binding",bound/input enrichment,0.39 ratio

# For quick reference, copied from above (block 3):
Substitution,normalised enrichment score
STTRRRLFVEGDS [N11G],9.08
STTRRRLFIENDS [V9I],7.66
STTRRCLFVENDS [R6C],6.98
STTRRRLFVKNDS [E10K],6.52
STTRRRLFVVNDS [E10V],7.37
STTRRRLFKENDS [V9K],8.5
STTRRRLFVHNDS [E10H],7.66
STTRRNLFVENDS [R6N],3.41
STTWRRLFVENDS [R4W],3.6
STTRQRLFVENDS [R5Q],1.1
STTYRRLFVENDS [R4Y],5.19
